Measurements collected from several papers.
Compare with care: the assays were run in different laboratories. “And” joins repeats or separate records; there may be more than shown. ± marks the error that the study gave.
YAP1 WW2 domain: Transcriptional coactivator YAP1, WW2 domain (YAP1, Homo sapiens, UniProt P46937)
KCNT1: Potassium channel subfamily T member 1 (KCNT1, Homo sapiens, UniProt Q5JUK3)
YAP1 WW1 domain: Transcriptional coactivator YAP1, WW1 domain (YAP1, Homo sapiens, UniProt P46937)
CFTR del508-508: Cystic fibrosis transmembrane conductance regulator (CFTR, Homo sapiens, UniProt P13569, del508-508)
T1: DNA aptamer, truncated, engineered stem; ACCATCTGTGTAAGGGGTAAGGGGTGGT

| Molecule | target | test | test system | setting | how to read | measurement | value |
| --- | --- | --- | --- | --- | --- | --- | --- |
| CC(C)C[C@H](NC(=O)[C@@H](NC(=O)[C@@H](N)[C@@H](C)O)C(C)C)C(=O)N[C@@H](C)C(=O)N1CCC[C@H]1C(=O)N1CCC[C@H]1C(=O)N1CCC[C@H]1C(=O)N[C@@H](Cc1ccc(O)cc1)C(=O)N[C@@H](CCCNC(=N)N)C(=O)N[C@@H](Cc1c[nH]cn1)C(=O)N[C@@H](CCCNC(=N)N)C(=O)N[C@@H](CC(N)=O)C(=O)O | YAP1 WW2 domain | binding, ITC | – | pH 7.0, 25 °C, WW2 domain | – | TΔS | -5.29 ± 0.4 kcal/mol |
| CCOc1ccccc1S(=O)(=O)N1CC(c2nc(-c3ccncc3)no2)C1 | KCNT1 | Tl+ flux, inhibitor | HEK293 expressing KCNT1 | 30 µM | – | activity class | inactive |
| IINFEKE | ERAP1 (Homo sapiens, UniProt Q9NZ08, F803R) | substrate | peptide | pH 8.0, 27 °C, mutant F803R, with: L-AMC, peptide activator 100 µM | – | Hill coefficient | 2.3 |
| O=[N+]([O-])c1ccc(OS(=O)(=O)O)cc1 | SULT1A1 (Homo sapiens, UniProt P50225) | substrate | – | pH 6.2, 37 °C, value unreliable, with: PAP 0.1 mM | – | apparent Km | 75 ± 1 µM |
| Cc1ccc(S(=O)(=O)N2CCC2=O)cc1 | Erythronolide synthase EryA1, module 2 ACP, holo (eryA, Saccharopolyspora erythraea, UniProt Q03131) | substrate, LC-MS of tryptic digest | – | 10 equivalents, 1 h, pH 7, room temperature | – | phosphopantetheine acylation | ~80% |
| Cc1cc(=O)oc2cc(NC(=O)[C@@H](N)CC(C)C)ccc12 | ERAP1 (Homo sapiens, UniProt Q9NZ08, V737R) | hydrolysis of compound, substrate | – | varied from 0 µM, 5 min, pH 8.0, 27 °C, mutant V737R, no peptide activator | – | Vmax | 90 ± 1 nmol/min/µg |
| CC(C)C[C@H](NC(=O)[C@@H](NC(=O)[C@@H](N)[C@@H](C)O)C(C)C)C(=O)N1CCC[C@H]1C(=O)N1CCC[C@H]1C(=O)N1CCC[C@H]1C(=O)N1CCC[C@H]1C(=O)N[C@@H](Cc1ccc(O)cc1)C(=O)N[C@@H](CCCNC(=N)N)C(=O)N[C@@H](C)C(=O)N[C@@H](CCCNC(=N)N)C(=O)N[C@@H](CC(N)=O)C(=O)O | YAP1 WW1 domain | binding, ITC | – | pH 7.0, 25 °C, WW1 domain | – | TΔS | -7.95 ± 0.52 kcal/mol |
| COC1=C(OC)C(=O)C(C/C=C(\C)CC/C=C(\C)CC/C=C(\C)CC/C=C(\C)CC/C=C(\C)CC/C=C(\C)CC/C=C(\C)CC/C=C(\C)CCC=C(C)C)=C(C)C1=O | Prosaposin, Saposin B (PSAP, Homo sapiens, UniProt P07602) | binding, tyrosine fluorescence quenching | – | pH 5.5, 25 °C, 40 µM saposin B, 50 mM phosphate | – | log association constant | 6.2 |
| N[C@@H](Cc1c[nH]cn1)C(=O)O | SLC7A5 (Homo sapiens, UniProt Q01650) | substrate | HEK293 expressing human LAT1 | 200 µM, 3 min, with: [3H]-gabapentin preloaded | baseline: L-phenylalanine | relative efflux | 140% |
| COc1cccc(C(=O)N2CCN(c3nc4cc(C)cc(C)c4cc3C#N)CC2)c1 | CFTR del508-508 | ΔF508-CFTR correction, corrector | FRT | up to 25 µM, 37 °C, with: forskolin 20 µM + genistein 50 µM | – | EC50 | inactive |
| CO[C@@]12[C@H](COC(N)=O)C3=C(C(=O)C(C)=C(N)C3=O)N1C[C@@H]1N[C@@H]12 | T1, DNA aptamer, truncated, engineered stem | electrochemical aptamer sensor | – | 1 mM | – | binding | no binding |
| N=C(N)c1ccccc1 | Degenerin mec-4 (mec-4, Caenorhabditis elegans, UniProt P24612, A713T) | ion current, two-electrode voltage clamp | Xenopus oocytes coexpressing MEC-2 | 30 µM, -85 mV | baseline: uninjected oocytes, positive inhibition, negative potentiation | current change | 0.61 µA |
| IKPAKRMKFKTVCYLLVQLMHCRKMFKA | Calmodulin-1 (Calm1, Rattus norvegicus, UniProt P0DP29) | Ca2+ dissociation, stopped-flow quin-2 fluorescence | peptide | 2 µM, pH 7.4, 22 °C, with: Ca2+-calmodulin complex | – | koff2 | 1.16 s⁻¹ and 1.2 s⁻¹ |
| CCOc1ccccc1S(=O)(=O)N1CC(c2cc(-c3ccc(F)cc3)on2)C1 | KCNT1 | Tl+ flux, inhibitor | HEK293 expressing KCNT1 | 30 µM | – | activity class | inactive |
| CC[C@H](C)[C@H](NC(=O)[C@H](CC(C)C)NC(=O)[C@H](Cc1ccccc1)NC(=O)[C@@H](NC(=O)[C@H](C)N)[C@@H](C)O)C(=O)N[C@@H](CCC(N)=O)C(=O)N[C@@H](CCC(=O)O)C(=O)N[C@@H](Cc1ccc(O)cc1)C(=O)N[C@@H](Cc1ccccc1)C(=O)N[C@@H](CCCNC(=N)N)C(=O)N[C@@H](CCCCN)C(=O)N[C@@H](Cc1ccccc1)C(=O)N[C@@H](CCCCN)C(=O)N[C@@H](CCCCN)C(=O)N[C@@H](CCCNC(=N)N)C(=O)N[C@@H](CCCCN)C(=O)N[C@@H](CCC(=O)O)C(=O)N[C@@H](CCC(N)=O)C(=O)NCC(=O)N[C@@H](CC(C)C)C(=O)N[C@H](C(=O)NCC(=O)N[C@@H](CCCCN)C(=O)N1CCC[C@H]1C(=O)N[C@@H](CO)C(=O)N[C@@H](CCC(N)=O)C(=O)O)C(C)C | rat calmodulin 1-80, sites I and II | fluorescence titration | – | 6 to 8 µM, pH 7.4, 22 °C | – | apparent calcium binding free energy, ΔG2 | -13.6 ± 0.15 kcal/mol |
| C=CC(=O)Nc1ccccc1Nc1nc(Nc2ccc(N3CCN(C)CC3)cc2)ncc1Cl | SRC (Homo sapiens, UniProt P12931) | probe binding, inhibitor, chemoproteomic competition | NCI-H23 KRAS G12C | 100 nM, 2 h, with: 2 µM desthiobiotin probe | – | labelling | > 50% |

| Molecule | target | test | test system | setting | how to read | measurement | value |
| --- | --- | --- | --- | --- | --- | --- | --- |
| GEVIVFGG | Kelch domain-containing protein 2 (UniProt Q9Y2U9) | native mass spectrometry | peptide, 200 mM ammonium acetate | 20 µM Kelch domain-containing protein 2, pH 7 | baseline: total Kelch domain-containing protein 2 signal | fraction of protein bound | 3.1% |
| O=C(ON1C(=O)CCC1=O)c1cc(C(F)(F)F)cc(C(F)(F)F)c1 | CD209 antigen (CD209, Homo sapiens, UniProt Q9NNX6) | activator, plate-based HRP | – | 500 µM, overnight, 4 °C or RT | baseline: DMSO control | HRP binding | ≥ 50% |
| O=C(O)CNC(=O)C(CS)Cc1ccccc1 (centres unmarked) | Neprilysin (Rattus norvegicus, UniProt P07861) | inhibitor, MALDI-TOF MS | isolated rat glomeruli | 10 µM, 60 min, 37 °C, with: ANG-I 1 µM | – | ANG-(1-7) formation | 13.4 ± 0.7 pg/glomerulus |
| COc1ccc(Cl)cc1Nc1nc(-c2sc(NC(=O)c3ccccc3)nc2C)cs1 | CFTR del508-508 | iodide influx, corrector, YFP halide quenching | FRT cells expressing YFP-H148Q/I152L | 16 to 20 h, 37 °C, genistein 50 µM, with: forskolin 20 µM | – | Vmax | 475 µM/s |
| O=S(=O)(Sc1ccc(Cl)cc1)c1ccc(Cl)cc1 | tubulin | colchicine binding | – | 5 µM, 10 min, 37 °C, with: 5.0 µM [3H]colchicine | – | inhibition | 0% |
| CC1CNCCN1S(=O)(=O)c1cccc2cnccc12.Cl.Cl (centres unmarked) | integrin alphaM beta2 (human) | ligand binding, inhibitor, flow cytometry | human neutrophils | concentration not given, 1 h, 37 °C, integrin clustering inhibitor, with: Alexa 488-labelled plasminogen | baseline: no inhibitor, lower means less binding | bound plasminogen fluorescence | 323 ± 45 MFI |
| N[C@@H](Cc1cnc[nH]1)C(=O)O | HARS1 (Homo sapiens, UniProt P12081, V155G) | thermal stability, DSF | – | – | – | ΔTm | 1.3 °C |
| Cc1ccc(S(=O)(=O)OCC(=O)Nc2ccc(C(=O)O)c(O)c2)cc1 | Fibroblast growth factor 14/SCN8A, Nav1.6 C-terminal tail (Homo sapiens, UniProt Q92915+Q9UQD0) | FGF14-Nav1.6 complex formation, luciferase complementation | HEK293 stably expressing both | 30 µM | baseline: DMSO | luminescence | 115% |
| CC(C)C[C@H](NC(=O)[C@@H](NC(=O)[C@@H](N)[C@@H](C)O)C(C)C)C(=O)N1CCC[C@H]1C(=O)N1CCC[C@H]1C(=O)N1CCC[C@H]1C(=O)N1CCC[C@H]1C(=O)N[C@@H](Cc1ccc(O)cc1)C(=O)N[C@@H](CCCNC(=N)N)C(=O)N[C@@H](Cc1c[nH]cn1)C(=O)N[C@@H](C)C(=O)N[C@@H](CC(N)=O)C(=O)O | YAP1 WW2 domain | binding, ITC | – | pH 7.0, 25 °C, WW2 domain | – | ΔH | -9.06 ± 0.11 kcal/mol |
| Nc1ccc(-c2nc([C@H]3CCc4cc(-c5cc(Cl)ccc5-n5cnnn5)cc(=O)n43)c(F)[nH]2)c(F)n1 | F11 (Homo sapiens, UniProt P03951) | – | human, blood | oral, 150 mg once daily, fed, day 1, 24 h | – | FXI activity inhibition | 52 ± 11.2% |
| Cc1ccc(-c2csc3ncn(Cc4ccccc4)c(=O)c23)o1 | MAD2L2, with REV3L peptide (Homo sapiens, UniProt Q9UI95, R124A) | – | – | concentration not given | – | activity | inactive |
| CC(C)C[C@H](NC(=O)[C@@H](NC(=O)[C@@H](N)[C@@H](C)O)C(C)C)C(=O)N1CCC[C@H]1C(=O)N1CCC[C@H]1C(=O)N1CCC[C@H]1C(=O)N[C@@H](C)C(=O)N[C@@H](Cc1ccc(O)cc1)C(=O)N[C@@H](CCCNC(=N)N)C(=O)N[C@@H](Cc1c[nH]cn1)C(=O)N[C@@H](CCCNC(=N)N)C(=O)N[C@@H](CC(N)=O)C(=O)O | YAP1 WW1 domain | binding, ITC | – | pH 7.0, 25 °C, WW1 domain | – | TΔS | -6.91 ± 0.57 kcal/mol |
| CCOc1ccccc1S(=O)(=O)N1CC(c2nc(-c3cccnc3)no2)C1 | KCNT1 | Tl+ flux, inhibitor | HEK293 expressing KCNT1 | 30 µM | – | activity class | inactive |
| COc1ccccc1C(=O)NCCNc1nc2cc(C)cc(C)c2cc1C#N | CFTR del508-508 | CFTR correction, corrector, iodide influx rate | FRT expressing YFP-H148Q/I152L | up to 25 µM, 16-20 h, 37 °C, with: forskolin 20 µM, genistein 50 µM | – | Vmax | 114 µM/s |
| O=S(=O)(Sc1cccc(Cl)c1)c1cccc(Cl)c1 | tubulin | colchicine binding, [3H]colchicine binding | – | 50 µM, 10 min, 37 °C, with: [3H]colchicine 5.0 µM | – | inhibition | 93 ± 1% |
| CC(C)C[C@H](NC(=O)[C@H](C)NC(=O)[C@@H](N)[C@@H](C)O)C(=O)N1CCC[C@H]1C(=O)N1CCC[C@H]1C(=O)N1CCC[C@H]1C(=O)N1CCC[C@H]1C(=O)N[C@@H](Cc1ccc(O)cc1)C(=O)N[C@@H](CCCNC(=N)N)C(=O)N[C@@H](Cc1c[nH]cn1)C(=O)N[C@@H](CCCNC(=N)N)C(=O)N[C@@H](CC(N)=O)C(=O)O | YAP1 WW1 domain | binding, ITC | – | pH 7.0, 25 °C, WW1 domain | – | ΔH | -16.9 ± 0.64 kcal/mol |

A few entries again:
| Molecule | target | test | test system | setting | how to read | measurement | value |
| --- | --- | --- | --- | --- | --- | --- | --- |
| CC(C)C[C@H](NC(=O)[C@@H](NC(=O)[C@@H](N)[C@@H](C)O)C(C)C)C(=O)N1CCC[C@H]1C(=O)N1CCC[C@H]1C(=O)N1CCC[C@H]1C(=O)N1CCC[C@H]1C(=O)N[C@@H](Cc1ccc(O)cc1)C(=O)N[C@@H](CCCNC(=N)N)C(=O)N[C@@H](C)C(=O)N[C@@H](CCCNC(=N)N)C(=O)N[C@@H](CC(N)=O)C(=O)O | YAP1 WW1 domain | binding, ITC | – | pH 7.0, 25 °C, WW1 domain | – | TΔS | -7.95 ± 0.52 kcal/mol |
| Cc1ccc(S(=O)(=O)N2CCC2=O)cc1 | Erythronolide synthase EryA1, module 2 ACP, holo (eryA, Saccharopolyspora erythraea, UniProt Q03131) | substrate, LC-MS of tryptic digest | – | 10 equivalents, 1 h, pH 7, room temperature | – | phosphopantetheine acylation | ~80% |
| IKPAKRMKFKTVCYLLVQLMHCRKMFKA | Calmodulin-1 (Calm1, Rattus norvegicus, UniProt P0DP29) | Ca2+ dissociation, stopped-flow quin-2 fluorescence | peptide | 2 µM, pH 7.4, 22 °C, with: Ca2+-calmodulin complex | – | koff2 | 1.16 s⁻¹ and 1.2 s⁻¹ |
| O=[N+]([O-])c1ccc(OS(=O)(=O)O)cc1 | SULT1A1 (Homo sapiens, UniProt P50225) | substrate | – | pH 6.2, 37 °C, value unreliable, with: PAP 0.1 mM | – | apparent Km | 75 ± 1 µM |
